{"data": "Published values of several laboratories", "note": "A part holds a random share of what one study measured. “And” joins repeats or separate records; there may be more than shown."}
{"data": "Block 1", "Structure (SMILES)": "COc1ccc2c(c1)OC(O)(C(=O)O)C(=O)N2Cc1ccccc1 (stereo not shown)", "organism": "Arabidopsis thaliana", "strain": "Col-0"}
{"tested at": "100 µg/mL", "notes": "seed germination, single repetition", "hypocotyl length": "1.02 cm and 1.1 cm and 1.01 cm and 1.09 cm and 1.11 cm"}
{"tested at": "3.125 µg/mL", "notes": "seed germination, repetition mean", "hypocotyl length": "1.97 cm"}
{"tested at": "25 µg/mL", "notes": "seed germination, repetition mean", "hypocotyl length": "1.62 cm"}
{"tested at": "25 µg/mL", "notes": "seed germination, single repetition", "hypocotyl length": "1.55 cm and 1.52 cm and 1.62 cm and 1.77 cm and 1.5 cm"}
{"tested at": "12.5 µg/mL", "notes": "seed germination, repetition mean", "hypocotyl length": "1.84 cm"}
{"tested at": "50 µg/mL", "notes": "seed germination, repetition mean", "hypocotyl length": "1.33 cm"}
{"tested at": "6.25 µg/mL", "notes": "seed germination, single repetition", "hypocotyl length": "1.91 cm and 1.93 cm and 1.92 cm"}
{"tested at": "12.5 µg/mL", "notes": "seed germination, single repetition", "hypocotyl length": "1.84 cm and 1.88 cm and 1.81 cm and 1.85 cm and 1.83 cm"}
{"data": "Block 2", "SMILES": "CCN1/C(=C/C=C2\\CCCC(/C=C/C3=[N+](CC)c4ccccc4C3(C)C)=C2NCCCCCCCCN2CCC(Nc3nc4ccccc4n3Cc3ccc(F)cc3)CC2)C(C)(C)c2ccccc21", "cell line": "U-87 MG", "tested at": "concentration not given", "relative to": "DMSO"}
{"measured": "COBLL1 mRNA", "log2 fold change": 1.4}
{"measured": "ARFGEF3 mRNA", "log2 fold change": 1.45}
{"measured": "EIF5 mRNA", "log2 fold change": 1.23}
{"measured": "COL5A1 mRNA", "log2 fold change": -1.91}
{"measured": "ST3GAL1 mRNA", "log2 fold change": 1.69}
{"measured": "CSRNP2 mRNA", "log2 fold change": 1.14}
{"measured": "SLITRK5 mRNA", "log2 fold change": -3.02}
{"measured": "TMEM200B mRNA", "log2 fold change": -0.995}
{"measured": "CRYBG1 mRNA", "log2 fold change": -2.04}
{"measured": "ZNF770 mRNA", "log2 fold change": 0.957}
{"measured": "DNHD1 mRNA", "log2 fold change": 1.62}
{"measured": "WNT5A mRNA", "log2 fold change": -0.881}
{"measured": "BTBD9 mRNA", "log2 fold change": 0.822}
{"measured": "PRR16 mRNA", "log2 fold change": -1.21}
{"measured": "PRKG1 mRNA", "log2 fold change": 1.51}
{"measured": "EAF2 mRNA", "log2 fold change": 1.9}
{"data": "Block 3", "Compound": "Cc1ccc(O)c(C)c1-c1cnc2[nH]c(-c3cnc(N4CCC5(CC4)CC(N4CCN(c6ccc(N[C@H]7CCC(=O)NC7=O)cc6F)CC4)CO5)nc3)cc2c1C#N (single isomer, unassigned)"}
{"tested on": "biomarker-positive cells (CCNE1 amp, FBXW7 mut, PPP2R1A loss)", "assay": "cell growth", "setting": "168 h, average", "IC50": "177 nM"}
{"tested on": "HCC1569", "assay": "CDK1 phosphorylation, Jess capillary immunoassay, measured: CDK1 phospho-Thr14", "setting": "24 h", "IC50": "9 nM"}
{"tested on": "PKMYT1 (Homo sapiens, UniProt Q99640)", "assay": "enzyme activity, inhibitor", "IC50": "7.6 nM"}
{"tested on": "BRAF (Homo sapiens, UniProt P15056)", "assay": "enzyme activity, inhibitor, ADP detection", "IC50": "485 nM"}
{"tested on": "RAF1 (Homo sapiens, UniProt P04049, Y340D/Y341D)", "assay": "enzyme activity, inhibitor, ADP detection", "IC50": "373 nM"}
{"tested on": "biomarker-negative wild-type cell lines", "assay": "cell growth", "setting": "168 h", "IC50": "2120 nM"}
{"tested on": "SRC (Homo sapiens, UniProt P12931)", "assay": "enzyme activity, inhibitor, TR-FRET", "IC50": "398 nM"}
{"tested on": "HCC1569", "assay": "automated immunoblotting, measured: CDK1 phospho-Thr14", "setting": "24 h", "IC50": "19.3 nM"}
{"data": "Block 4", "SMILES": "C[C@@H]1CN(c2ccc(-c3cc(C(=O)NCCOCCOCCOCCOCCNC(=O)Cn4cc(-c5[nH]cc(C(=O)N[C@@H](CC(N)=O)c6ccc(F)c(Cl)c6)c5-c5ccc(Cl)cc5F)cn4)ccc3F)cc2NC(=O)c2c[nH]c(=O)cc2C(F)(F)F)C[C@H](C)N1C", "observed": "thermal unfolding", "technique": "differential scanning fluorimetry", "tested at": "5.5 µM", "reading": "higher = more unfolded", "DCAF1": "DDB1- and CUL4-associated factor 1 (DCAF1, Homo sapiens, UniProt Q9Y4B6)", "WDR5": "WD repeat-containing protein 5 (WDR5, Homo sapiens, UniProt P61964)"}
{"target": "DCAF1", "temperature": "32 °C", "SYPRO Orange fluorescence [a.u.]": 8240}
{"target": "DCAF1", "temperature": "57.61 °C", "SYPRO Orange fluorescence [a.u.]": 27200}
{"target": "WDR5", "temperature": "65.61 °C", "SYPRO Orange fluorescence [a.u.]": 7400}
{"target": "WDR5", "temperature": "92.21 °C", "SYPRO Orange fluorescence [a.u.]": 41200}
{"target": "DCAF1", "temperature": "31 °C", "SYPRO Orange fluorescence [a.u.]": 8290}
{"target": "WDR5", "temperature": "73.41 °C", "SYPRO Orange fluorescence [a.u.]": 8790}
{"target": "WDR5", "temperature": "75.61 °C", "SYPRO Orange fluorescence [a.u.]": 12200}
{"target": "WDR5", "temperature": "58.01 °C", "SYPRO Orange fluorescence [a.u.]": 11900}
{"target": "WDR5", "temperature": "49.2 °C", "SYPRO Orange fluorescence [a.u.]": 14500}
{"target": "WDR5", "temperature": "84.81 °C", "SYPRO Orange fluorescence [a.u.]": 38900}
{"target": "WDR5", "temperature": "90.01 °C", "SYPRO Orange fluorescence [a.u.]": 43200}
